Published values gathered from unrelated publications.
Parts stem from different laboratories: compare values within a part only.

Sample 1 — technique: protein binding microarray; form: double-stranded DNA, one strand shown; medium: in vitro; concentration: not given; reference: not given; reading: higher = stronger binding
Target: Histone acetyltransferase KAT6A, winged helix 2, GST fusion (KAT6A, Homo sapiens, UniProt Q92794, residues 85-181)
Setting: 8-mer, flanks averaged, mean of 2 arrays, mostly near background
Construct (chain): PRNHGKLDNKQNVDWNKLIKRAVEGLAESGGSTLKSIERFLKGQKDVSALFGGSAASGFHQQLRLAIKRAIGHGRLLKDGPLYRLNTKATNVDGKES
With `AGCACAGA` the E-score was 0.181.
With `CCTAGGAG` the E-score was 0.0274.
`AACGCTCT` has an E-score of -0.152.
`CATGAATG` gave an E-score of -0.25.
`AAGGTATA` has an E-score of -0.127.
For `CGAGCATA`, the E-score was 0.113.
For `TAACCTCA`, the E-score was -0.111.
For `AAAGTAGA`, the E-score was -0.0212.
`GACCAAAA` has an E-score of 0.193.
With `AATTCCTC` the E-score was 0.00717.
The E-score of `AAGAACTG` is reported as -0.0827.
`CACACGCA` gave an E-score of 0.0899.
`GTCTGTGA` has an E-score of 0.0723.
`AACATGCC` gave an E-score of -0.0669.
With `CCTTATCG` the E-score was -0.0276.
With `TCCATGCA` the E-score was 0.0466.

Sample 2 — technique: protein-binding microarray; form: double-stranded DNA, one strand shown; medium: in vitro; concentration: 250 nM; setting: 60-bp whole probe; added: salmon DNA 0.4 mg/ml; reference: random background probes; reading: higher = stronger binding; all sequences stand within: GCCTAGCAC … GTCTTGATTCGCTTGACGCTGCTG
Target: Interferon regulatory factor 5, full length, phosphomimetic (IRF5, Homo sapiens, UniProt Q13568-2, residues 1-514, K96S/S451D/S453D/S456D/S462D)
For `GACGGTTCCTGTTTCGGGACGTGCTAG`, the log fluorescence was 3.34 z-score.
With `TTAGGTATCGACACTGTGTTAGTGCTA` the log fluorescence was 2.32 z-score.
The log fluorescence of `GTCGGACTGGGTCTCGGGACGTGCTAG` is reported as -0.713 z-score.
`AGTGTTACCCCTCATCAACCAGTGCTA` has a log fluorescence of -0.00863 z-score.
The log fluorescence of `TTAGGTTTCATTTCCCTTTAGTGCTAG` is reported as 3.49 z-score.
For `TGTGCCATATTTATCTGCAAGTGCTAG`, the log fluorescence was 0.213 z-score.
For `TCATTTTTGTTGTTTTTACTGTGCTAG`, the log fluorescence was 2.23 z-score.
With `TTAGAACTGGGGTATCGGTTAGTGCTA` the log fluorescence was 2.65 z-score.
With `TTAGCACTGGACTATCGGTTAGTGCTA` the log fluorescence was 5.58 z-score.
`TCACTTTTGCTTTACTGACTGTGCTAG` has a log fluorescence of 2.85 z-score.
`TCGGGTCTCCCTTGAGGTTTGTGCTAG` gave a log fluorescence of -0.456 z-score.
The log fluorescence of `GACGGTATCCTTCTGCTGACGTGCTAG` is reported as 0.17 z-score.
For `TTATGACTGGGTCTCGGTTAGTGCTAG`, the log fluorescence was 0.161 z-score.
With `AAGGGTCTCTTGTTCTCTCTGTGCTAG` the log fluorescence was -0.226 z-score.

Sample 3 — technique: protein-binding microarray; form: double-stranded DNA, one strand shown; medium: in vitro; concentration: 0.8 µM; setting: whole 60-bp probe, no competitor; reading: higher = stronger binding
Target: Centromere-binding protein 1, full length, N-terminal tag (CBF1, Saccharomyces cerevisiae, UniProt P17106, residues 1-351)
UniProt P17106, sequence (whole entry, looked up): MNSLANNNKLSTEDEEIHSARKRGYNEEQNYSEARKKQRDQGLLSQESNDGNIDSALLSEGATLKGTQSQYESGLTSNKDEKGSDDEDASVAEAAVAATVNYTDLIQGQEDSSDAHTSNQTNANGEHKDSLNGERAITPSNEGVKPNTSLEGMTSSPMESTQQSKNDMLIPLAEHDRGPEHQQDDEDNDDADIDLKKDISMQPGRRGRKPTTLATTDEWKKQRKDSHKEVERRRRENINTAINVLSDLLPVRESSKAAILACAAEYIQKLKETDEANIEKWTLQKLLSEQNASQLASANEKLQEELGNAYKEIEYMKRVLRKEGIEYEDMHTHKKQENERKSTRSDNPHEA
The fluorescence intensity of `GAACTGTTTGTCAGTAAGTCACGTAGACCTGTATAGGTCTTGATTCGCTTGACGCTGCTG` is reported as 2110 a.u.
`GAAAAAAAAGCACTTCACGTTTTCCTGCATTTTTAGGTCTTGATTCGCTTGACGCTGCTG` has a fluorescence intensity of 602 a.u.
The fluorescence intensity of `CTAGACAGATAGAGGGGCACGTGTTCAGCCAGTTTCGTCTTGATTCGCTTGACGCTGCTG` is reported as 12900 a.u.
For `CTATCTCAATATAGGGAGGTGATCGGGACCAGCTTCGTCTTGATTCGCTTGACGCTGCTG`, the fluorescence intensity was 536 a.u.
`CTAGTGTGTCATTGTCATGTGTTCTTACTTCTTTTCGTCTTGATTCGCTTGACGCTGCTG` gave a fluorescence intensity of 1080 a.u.
The fluorescence intensity of `GAAACTAGGCCGCTTCACATGAAATTAGATGTTTAGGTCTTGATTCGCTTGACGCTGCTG` is reported as 513 a.u.
For `GAAACTGGCTGAGATCACGTGAATGGCTAATTATAGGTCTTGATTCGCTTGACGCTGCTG`, the fluorescence intensity was 17100 a.u.
For `GAAATCATCAAACGGCACGCGCAGGGATGAAGGTAGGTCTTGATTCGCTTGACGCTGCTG`, the fluorescence intensity was 732 a.u.
`CTATCGCGTTCGTCACACATGATTATTTATACATTCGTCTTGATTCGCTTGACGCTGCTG` gave a fluorescence intensity of 861 a.u.
The fluorescence intensity of `CTATTTTTCGTGACGCACATGTCTTCAACTGCATTCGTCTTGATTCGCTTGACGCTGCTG` is reported as 751 a.u.
`GAACGTCAGGACCGGAGTCAGGTGAAAAAATGTTAGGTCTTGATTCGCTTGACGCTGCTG` gave a fluorescence intensity of 977 a.u.
The fluorescence intensity of `GAAACACTGGTTTTGGACGTCACAAGAGCATCTTAGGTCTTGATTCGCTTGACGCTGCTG` is reported as 630 a.u.
`CTAGGTTCCTATTTACACGCGGCGTTTATATTTTTCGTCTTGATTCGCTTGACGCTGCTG` gave a fluorescence intensity of 524 a.u.
The fluorescence intensity of `GAACAATTTATGTCGAACGTGCTTATGACTCCATAGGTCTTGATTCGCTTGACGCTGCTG` is reported as 617 a.u.
`CTATGCATTGATAATCTCCTGACCCTAGGTCGTTTCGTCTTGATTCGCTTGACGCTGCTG` gave a fluorescence intensity of 575 a.u.
The fluorescence intensity of `GAAAATGGAACACTCCTCACCACGAGGTTCTAATAGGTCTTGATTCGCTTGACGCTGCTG` is reported as 688 a.u.
For `TGTACGAAGCTATCTCGCGTGCCTATAGTAGTTAGGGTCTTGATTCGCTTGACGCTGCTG`, the fluorescence intensity was 546 a.u.
`GAAGATGGGTCTTGCAACGTGATCTAGTAGATATAGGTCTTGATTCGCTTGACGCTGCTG` has a fluorescence intensity of 1730 a.u.
`CTACATCTTTAAAGGCACGCGATGTACTGTCTTTTCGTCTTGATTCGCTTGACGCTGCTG` gave a fluorescence intensity of 651 a.u.
For `CTATTGTAGCTACACCACGATTGAGTGTCTGCATTCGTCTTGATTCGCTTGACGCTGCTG`, the fluorescence intensity was 513 a.u.
With `CTAGTAACATTCAGATGCGTGCGTCATTTATTCTTCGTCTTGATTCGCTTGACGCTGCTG` the fluorescence intensity was 535 a.u.
With `CTACTTTTTTTTCACGTGCTGCGCTGATGTAAGTTCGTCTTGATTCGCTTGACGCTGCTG` the fluorescence intensity was 5620 a.u.
For `CTAATACTAGTTCTCCTCGTGGTATAGGAATCCTTCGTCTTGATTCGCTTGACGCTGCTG`, the fluorescence intensity was 614 a.u.
The fluorescence intensity of `GAAGATGCGGTAATTCAACACGTGAATTTCAGCTAGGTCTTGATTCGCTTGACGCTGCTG` is reported as 2990 a.u.
`CTATGATCCTATATGCGTGTGTTCATACCTCTATTCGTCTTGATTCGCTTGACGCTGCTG` has a fluorescence intensity of 543 a.u.

Sample 4 — technique: RNA Bind-n-Seq; form: RNA; medium: in vitro; concentration: 200 nM; setting: whole 134-nt RNA, ends assumed; added: 150 mM KCl; reference: input library; reading: higher = stronger binding
Target: Ras GTPase-activating protein-binding protein 1, full length (G3BP1, Homo sapiens, UniProt Q13283)
UniProt Q13283, sequence (whole entry, looked up): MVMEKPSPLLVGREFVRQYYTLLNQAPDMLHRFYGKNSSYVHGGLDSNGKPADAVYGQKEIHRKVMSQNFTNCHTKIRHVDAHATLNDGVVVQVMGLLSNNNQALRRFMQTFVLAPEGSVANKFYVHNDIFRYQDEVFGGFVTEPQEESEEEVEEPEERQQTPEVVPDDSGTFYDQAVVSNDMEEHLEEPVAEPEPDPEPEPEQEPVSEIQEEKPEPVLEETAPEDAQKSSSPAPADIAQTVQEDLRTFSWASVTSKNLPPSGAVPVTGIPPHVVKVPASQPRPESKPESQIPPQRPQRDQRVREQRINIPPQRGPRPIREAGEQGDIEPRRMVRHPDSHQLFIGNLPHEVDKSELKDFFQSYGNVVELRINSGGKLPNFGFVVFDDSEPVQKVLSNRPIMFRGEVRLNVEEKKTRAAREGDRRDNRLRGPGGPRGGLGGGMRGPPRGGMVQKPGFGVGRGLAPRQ
`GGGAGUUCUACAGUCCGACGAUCUUGUGGAAAACCCACAUGCUCCUCAGAAAGAUGAUGCCCUGGUGAUCACACACUACAACCGGACCCGACAGCAGGAAGAGAUGCUGGGGCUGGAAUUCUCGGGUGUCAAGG` gave a log2 enrichment of 0.482.
The log2 enrichment of `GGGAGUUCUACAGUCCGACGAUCUGGGAGGUGGAUUUUGUUUAUUUUUUUAGCUCAUUUCCAGGGGUGGGAAAUUUUUUUUAAUAUGUGUCAUGAAUAAAGUUGUUUUUGAAAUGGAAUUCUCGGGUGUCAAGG` is reported as 0.302.
`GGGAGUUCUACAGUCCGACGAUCUCAAGUCCUGUGCUACACAUCGUAUGUACCGAAUCGGGAAGGGAAGGGAAGGGGAAAGUAUUAUGUUACGCCGUUCGGAUCUGCACUUCCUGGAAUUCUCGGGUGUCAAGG` gave a log2 enrichment of 1.3.
With `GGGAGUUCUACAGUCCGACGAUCCAAGUCCUGUGCUACACAUCGUAUGUACCGAAUCGGGGUUUGGGUUUGGGUUUGGAAAGUAUUAUGUUACGCCGUUCGGAUCUGCACUUCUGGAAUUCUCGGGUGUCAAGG` the log2 enrichment was -0.234.
For `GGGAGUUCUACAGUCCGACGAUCUGGCCCUGGUGGCAUGCGGGGAGGAAGAGGUGGCCUCAUGGAUCGUGGUGGUCCCGGUGGAAUGUUCAGAGGUGGCCGUGGUAGAGACAGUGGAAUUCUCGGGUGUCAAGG`, the log2 enrichment was 0.0992.
For `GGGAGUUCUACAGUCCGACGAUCUCCUGUGCUACACAUCGUAUGUACCGAAUCGGGUUUUUUGGGUUUUUUGGGGUUUUUUGGAAAGUAUUAUGUUACGCCGUUCGGAUCUGCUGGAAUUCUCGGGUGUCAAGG`, the log2 enrichment was -0.164.
The log2 enrichment of `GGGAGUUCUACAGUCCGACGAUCCACAGACAACACGCACCCACACAGACACAGAAAGAAGGGGUUGGGAUGGGGACAGGGUGCACAGCAGGGCGGGGUAGGACCCCAGCCCCUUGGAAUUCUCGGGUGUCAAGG` is reported as 1.8.
The log2 enrichment of `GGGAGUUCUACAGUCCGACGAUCGCAGGAAGUAAAAACAAAUGGAAAUGCUUCGGAUAGUGGCAGCGGUGGGGGUUGCUAAGGAAAGGGUGGGAUGGGAGUGGGUAAAGAGUUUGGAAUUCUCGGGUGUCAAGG` is reported as 1.05.
`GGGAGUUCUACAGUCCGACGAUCGUCCUGUGCUACACAUCGUAUGUACCGAAUCGGGAAAAAGGGUUUUUUUGGGUUUGGGAAAGUAUUAUGUUACGCCGUUCGGAUCUGCACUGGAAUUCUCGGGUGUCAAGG` has a log2 enrichment of -0.672.
With `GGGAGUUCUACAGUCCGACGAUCGUCCUGUGCUACACAUCGUAUGUACCGAAUCGGGGAAAAAAAGGGGUUUGGGGAGGGGAAAGUAUUAUGUUACGCCGUUCGGAUCUGCACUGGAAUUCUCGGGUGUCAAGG` the log2 enrichment was 0.444.

Repeated from above (sample 1):
`CATGAATG` gave an E-score of -0.25.
For `CGAGCATA`, the E-score was 0.113.
With `TCCATGCA` the E-score was 0.0466.
For `TAACCTCA`, the E-score was -0.111.
With `CCTAGGAG` the E-score was 0.0274.
With `CCTTATCG` the E-score was -0.0276.
`GACCAAAA` has an E-score of 0.193.
